# Experimental data pooled from the literature.
# Protocols differ between the studies behind these lines. ± marks the error that the study gave.
# Oprm1: Mu-type opioid receptor (Oprm1, Rattus norvegicus, UniProt P33535)
# Sequence of UniProt P33535 (whole entry, looked up): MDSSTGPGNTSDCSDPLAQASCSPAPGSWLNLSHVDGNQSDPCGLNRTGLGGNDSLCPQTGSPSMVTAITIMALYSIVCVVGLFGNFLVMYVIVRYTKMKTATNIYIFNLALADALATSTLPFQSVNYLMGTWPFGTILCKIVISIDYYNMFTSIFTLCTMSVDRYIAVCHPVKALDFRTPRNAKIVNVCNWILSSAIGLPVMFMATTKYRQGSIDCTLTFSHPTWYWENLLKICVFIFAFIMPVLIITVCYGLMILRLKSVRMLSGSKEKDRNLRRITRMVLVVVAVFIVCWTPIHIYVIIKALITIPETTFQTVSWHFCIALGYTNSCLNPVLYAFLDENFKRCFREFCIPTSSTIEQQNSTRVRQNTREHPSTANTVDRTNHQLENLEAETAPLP
# 4'-phosphopantetheinyl transferase PptT: 4'-phosphopantetheinyl transferase PptT (Mycobacterium tuberculosis, UniProt O33336)
# Sequence of UniProt O33336 (whole entry, looked up): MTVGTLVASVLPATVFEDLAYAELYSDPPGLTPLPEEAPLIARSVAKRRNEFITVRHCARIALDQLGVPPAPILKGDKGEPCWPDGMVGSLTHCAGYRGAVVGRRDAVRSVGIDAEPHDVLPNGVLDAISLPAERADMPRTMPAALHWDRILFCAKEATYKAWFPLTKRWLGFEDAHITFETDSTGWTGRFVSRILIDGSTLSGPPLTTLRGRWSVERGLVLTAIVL
# CHRM1: Muscarinic acetylcholine receptor M1 (CHRM1, Homo sapiens, UniProt P11229)
# Sequence of UniProt P11229 (whole entry, looked up): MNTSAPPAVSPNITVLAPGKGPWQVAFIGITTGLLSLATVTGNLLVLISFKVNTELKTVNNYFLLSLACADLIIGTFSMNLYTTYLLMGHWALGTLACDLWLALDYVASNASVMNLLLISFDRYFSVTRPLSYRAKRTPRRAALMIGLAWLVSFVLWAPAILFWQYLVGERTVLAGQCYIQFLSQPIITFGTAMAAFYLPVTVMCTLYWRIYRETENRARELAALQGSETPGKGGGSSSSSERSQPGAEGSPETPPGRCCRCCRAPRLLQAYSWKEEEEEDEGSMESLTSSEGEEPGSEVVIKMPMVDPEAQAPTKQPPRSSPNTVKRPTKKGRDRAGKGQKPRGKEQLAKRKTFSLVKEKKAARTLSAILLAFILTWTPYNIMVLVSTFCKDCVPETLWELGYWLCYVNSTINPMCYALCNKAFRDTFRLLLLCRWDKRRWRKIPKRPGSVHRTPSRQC
# Sequence of UniProt Q8NET8 (whole entry, unmodified, looked up): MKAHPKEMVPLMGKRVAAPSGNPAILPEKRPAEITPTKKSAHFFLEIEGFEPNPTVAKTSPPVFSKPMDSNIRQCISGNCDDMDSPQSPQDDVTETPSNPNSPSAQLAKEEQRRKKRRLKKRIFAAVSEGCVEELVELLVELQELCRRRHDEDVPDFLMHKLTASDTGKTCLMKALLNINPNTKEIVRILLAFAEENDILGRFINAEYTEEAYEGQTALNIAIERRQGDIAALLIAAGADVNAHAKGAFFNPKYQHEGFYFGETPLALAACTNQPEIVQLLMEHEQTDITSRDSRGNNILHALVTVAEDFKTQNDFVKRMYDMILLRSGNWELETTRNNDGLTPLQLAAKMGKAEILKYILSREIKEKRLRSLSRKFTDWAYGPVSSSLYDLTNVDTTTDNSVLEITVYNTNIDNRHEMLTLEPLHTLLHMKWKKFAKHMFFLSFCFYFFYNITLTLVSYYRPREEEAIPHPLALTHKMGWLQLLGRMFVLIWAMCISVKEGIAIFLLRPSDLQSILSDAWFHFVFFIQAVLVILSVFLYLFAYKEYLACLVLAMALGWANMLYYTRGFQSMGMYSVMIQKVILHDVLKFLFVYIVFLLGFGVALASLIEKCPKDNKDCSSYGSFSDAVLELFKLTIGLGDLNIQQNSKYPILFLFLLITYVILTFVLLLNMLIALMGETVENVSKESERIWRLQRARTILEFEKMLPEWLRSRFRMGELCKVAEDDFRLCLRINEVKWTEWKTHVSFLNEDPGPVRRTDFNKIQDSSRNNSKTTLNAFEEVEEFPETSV
# Sequence of UniProt Q9HAC7 (whole entry, looked up): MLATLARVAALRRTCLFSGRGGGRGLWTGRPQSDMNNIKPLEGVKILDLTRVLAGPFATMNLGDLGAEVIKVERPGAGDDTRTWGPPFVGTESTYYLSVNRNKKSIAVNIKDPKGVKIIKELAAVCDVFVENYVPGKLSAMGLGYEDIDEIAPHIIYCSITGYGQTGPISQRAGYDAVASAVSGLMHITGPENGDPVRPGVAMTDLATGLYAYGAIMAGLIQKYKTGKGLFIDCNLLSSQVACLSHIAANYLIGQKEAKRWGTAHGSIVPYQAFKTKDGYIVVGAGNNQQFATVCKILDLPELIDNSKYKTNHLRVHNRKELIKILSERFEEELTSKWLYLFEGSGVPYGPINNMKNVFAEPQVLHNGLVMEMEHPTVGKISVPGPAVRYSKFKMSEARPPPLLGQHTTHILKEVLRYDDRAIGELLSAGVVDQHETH
# Sequence of UniProt P11509 (whole entry, looked up): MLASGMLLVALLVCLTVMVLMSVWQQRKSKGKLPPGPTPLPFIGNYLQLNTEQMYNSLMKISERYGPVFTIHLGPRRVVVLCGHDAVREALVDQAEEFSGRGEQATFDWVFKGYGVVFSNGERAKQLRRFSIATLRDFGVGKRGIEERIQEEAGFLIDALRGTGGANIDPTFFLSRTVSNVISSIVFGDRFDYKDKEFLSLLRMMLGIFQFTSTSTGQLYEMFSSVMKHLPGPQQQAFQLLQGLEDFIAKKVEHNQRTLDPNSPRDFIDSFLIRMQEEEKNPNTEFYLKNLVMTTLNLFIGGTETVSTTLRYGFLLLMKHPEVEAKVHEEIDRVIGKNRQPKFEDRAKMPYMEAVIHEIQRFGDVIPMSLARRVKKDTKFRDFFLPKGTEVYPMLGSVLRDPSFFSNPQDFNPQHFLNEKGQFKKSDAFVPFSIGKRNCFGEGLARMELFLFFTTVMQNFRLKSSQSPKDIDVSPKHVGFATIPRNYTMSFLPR
# Sequence of UniProt Q92800 (whole entry, looked up): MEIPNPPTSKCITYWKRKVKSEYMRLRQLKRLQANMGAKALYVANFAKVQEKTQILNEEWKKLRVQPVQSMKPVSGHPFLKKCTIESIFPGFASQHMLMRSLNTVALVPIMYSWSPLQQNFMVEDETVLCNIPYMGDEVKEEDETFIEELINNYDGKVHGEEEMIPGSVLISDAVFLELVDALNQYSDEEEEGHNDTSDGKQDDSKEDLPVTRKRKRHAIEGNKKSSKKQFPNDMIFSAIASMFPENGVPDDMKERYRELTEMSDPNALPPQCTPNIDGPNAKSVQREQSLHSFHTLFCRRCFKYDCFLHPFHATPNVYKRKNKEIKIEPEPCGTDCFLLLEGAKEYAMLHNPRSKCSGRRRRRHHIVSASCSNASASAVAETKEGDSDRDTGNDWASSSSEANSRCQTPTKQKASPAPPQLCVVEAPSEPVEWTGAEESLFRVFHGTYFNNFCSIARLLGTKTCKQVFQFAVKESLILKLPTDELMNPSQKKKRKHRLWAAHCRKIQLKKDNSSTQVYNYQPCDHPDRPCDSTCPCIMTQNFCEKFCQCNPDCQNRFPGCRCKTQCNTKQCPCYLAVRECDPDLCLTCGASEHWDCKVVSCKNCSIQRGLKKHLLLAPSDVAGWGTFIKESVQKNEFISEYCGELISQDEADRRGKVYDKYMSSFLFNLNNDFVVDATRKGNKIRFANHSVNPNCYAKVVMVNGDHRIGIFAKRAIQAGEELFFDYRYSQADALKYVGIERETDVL
# Sequence of UniProt Q01959 (whole entry, looked up): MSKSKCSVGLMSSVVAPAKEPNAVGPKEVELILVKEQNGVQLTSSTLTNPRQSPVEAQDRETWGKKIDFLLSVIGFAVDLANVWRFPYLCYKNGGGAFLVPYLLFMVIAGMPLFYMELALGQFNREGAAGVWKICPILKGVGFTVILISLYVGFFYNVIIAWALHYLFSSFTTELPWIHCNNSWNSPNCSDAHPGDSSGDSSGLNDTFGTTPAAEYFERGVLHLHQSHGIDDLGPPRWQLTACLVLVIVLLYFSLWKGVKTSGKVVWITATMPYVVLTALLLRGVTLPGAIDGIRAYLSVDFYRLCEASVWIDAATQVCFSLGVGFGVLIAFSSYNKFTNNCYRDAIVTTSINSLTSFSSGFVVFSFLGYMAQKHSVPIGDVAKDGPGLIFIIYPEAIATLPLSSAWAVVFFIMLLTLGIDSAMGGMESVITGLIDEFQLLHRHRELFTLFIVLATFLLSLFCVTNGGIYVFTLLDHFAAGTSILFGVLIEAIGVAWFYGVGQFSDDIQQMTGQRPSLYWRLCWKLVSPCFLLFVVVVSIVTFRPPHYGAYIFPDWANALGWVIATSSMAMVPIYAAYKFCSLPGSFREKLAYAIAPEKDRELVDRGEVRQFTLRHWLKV
# Sequence of UniProt Q9BZJ6 (whole entry, looked up): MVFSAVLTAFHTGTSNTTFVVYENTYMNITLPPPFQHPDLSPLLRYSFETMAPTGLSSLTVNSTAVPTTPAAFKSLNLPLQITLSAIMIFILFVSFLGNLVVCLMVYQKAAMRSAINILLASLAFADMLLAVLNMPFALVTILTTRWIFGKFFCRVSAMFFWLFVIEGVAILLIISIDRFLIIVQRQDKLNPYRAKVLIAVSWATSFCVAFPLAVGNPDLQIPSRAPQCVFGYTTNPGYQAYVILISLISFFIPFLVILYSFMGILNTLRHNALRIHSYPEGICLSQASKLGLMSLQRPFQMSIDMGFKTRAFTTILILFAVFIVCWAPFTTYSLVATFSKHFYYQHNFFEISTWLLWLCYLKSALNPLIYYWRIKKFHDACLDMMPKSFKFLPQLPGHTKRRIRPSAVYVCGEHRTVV
# Sequence of UniProt P9WQP3 (whole entry, looked up): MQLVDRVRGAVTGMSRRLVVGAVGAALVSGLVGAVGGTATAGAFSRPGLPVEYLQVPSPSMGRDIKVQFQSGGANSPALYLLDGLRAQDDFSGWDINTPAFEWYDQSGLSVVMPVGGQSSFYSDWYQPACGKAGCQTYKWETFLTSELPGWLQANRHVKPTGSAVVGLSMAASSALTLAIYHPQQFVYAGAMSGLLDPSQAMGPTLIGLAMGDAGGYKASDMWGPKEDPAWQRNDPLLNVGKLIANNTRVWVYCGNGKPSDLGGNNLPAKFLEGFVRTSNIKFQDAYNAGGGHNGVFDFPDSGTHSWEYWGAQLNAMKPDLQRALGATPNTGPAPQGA
SMILES,tested on,test,system,setting,scale,measurement,value
Oc1cccc([C@]23CCC[C@H]([C@H]2O)N(CC=Cc2ccccc2)CC3)c1,Oprm1,agonist,"C6 cells expressing µ-opioid receptor, cell membranes",,,EC50,0.0019 µM
CCCCCCCCCCCC(CC1OC(=O)C1C(C)C)OC(=O)C(CC(C)C)NC(=O)OCc1ccccc1 (stereo not drawn),"fbpA (Mycobacterium tuberculosis, UniProt P9WQP3)","enzyme activity, inhibitor, 4-MUH hydrolysis fluorescence",,"pH 7.5, 4 mM trehalose, added: 50 µM 4-methylumbelliferyl heptanoate",,EC50,34 ± 22 µM
CCNC(=N)NC(=O)Nc1ccc2ccccc2c1,4'-phosphopantetheinyl transferase PptT,inhibitor,,,,IC50,> 100 µM
COc1ccc(N2C(=O)N(c3c(C)cccc3Cl)Cc3cnc(Nc4ccc(C5CCN(C)CC5)cc4OC)nc32)nc1,"FLT1 (Homo sapiens, UniProt P17948)",kinase activity,,0.5 µM,,inhibition,26%
CCNC(=N)NC(=O)Nc1cccc2ccccc12,4'-phosphopantetheinyl transferase PptT,inhibitor,,,,IC50,68.2 µM
CCCc1cc(O)c2c(c1)OC(C)(C)[C@@H]1CCC(C)=C[C@@H]21,"TRPV3 (Homo sapiens, UniProt Q8NET8, R693F)","calcium uptake, agonist",HEK293S,"mutant R693F, site 3",,EC50,20.1 ± 4.9 µM
COC(=O)/C=C/C(=O)N[C@@H]1CC[C@@]2(O)[C@H]3Cc4ccc(O)c5c4[C@@]2(CCN3CC2CC2)[C@H]1O5,Oprm1,"reversible binding, radioligand saturation binding",N2a membranes,added: [3H]compound,,Kd,0.00204 ± 0.00068 µM
COc1cc(CCC[P+](c2ccccc2)(c2ccccc2)c2ccccc2)c(OC)c2c1OCO2.[I-],LOX IMVI,SRB,,,,Log10TGI,-4.92 log M
CCCCC(=O)N(Cc1ccc(-c2ccccc2-c2nnn[nH]2)cc1)[C@H](C(=O)O)C(C)C,"Succinyl-CoA:glutarate CoA-transferase (SUGCT, Homo sapiens, UniProt Q9HAC7)","enzyme activity, inhibitor, fluorometric coupled",,"pH 7.4, 100 mM HEPES-KOH buffer",,IC50,10.7 µM
COc1cc(Nc2ncc(F)c(Nc3ccc4c(n3)NC(=O)C(C)(C)O4)n2)cc(OC)c1OC,"DRD1 (Homo sapiens, UniProt P21728)",,,,,IC50,> 10 µM
Clc1cccc(N2CCNCC2)c1Cl,CHRM1,"ERK1/2 phosphorylation, agonist",CHO cells,,,EC50,> 20 µM
CC[C@H](C)[C@@H]1NC(=O)[C@@H]2CCCN2C(=O)[C@H](CC(C)C)NC(=O)[C@H](CC(C)C)NC(=O)CNC(=O)[C@@H](NC(=O)[C@@H](NC(=O)[C@H](CC(=O)O)NC(=O)CNC(=O)[C@@H](NC(=O)[C@H](C)NC(=O)CNC(=O)[C@H](CCCCN)NC(=O)[C@H](CC(C)C)NC(=O)[C@H](CC(C)C)NC(=O)[C@H](CCCCN)NC(=O)CNC(=O)[C@@H](NC(=O)[C@@H](N)CC(C)C)C(C)C)C(C)C)C(C)C)CSSC[C@@H](C(=O)O)NC1=O,,"RNA-seq, measured: Igsf6","mouse, traumatic brain injury model, frontal cortex and hippocampus",dose not given,relative to: TBI alone,log2 fold change,-2.21
Clc1cc(Cl)cc(N2CCNCC2)c1,CHRM1,"ERK1/2 phosphorylation, agonist",CHO cells,,,EC50,> 20 µM
CCNC(=N)NC(=O)Nc1ccc(Cl)cc1,4'-phosphopantetheinyl transferase PptT,inhibitor,,,,IC50,> 100 µM
Oc1ccc2c3c1O[C@H]1[C@@H](O)CC[C@@]4(O)[C@@H](C2)N(CC2CCC2)CC[C@]314,"Probable G-protein coupled receptor 63 (GPR63, Homo sapiens, UniProt Q9BZJ6)","β-arrestin recruitment, TANGO luminescence, measured: GPR63",,concentration not given,relative to: basal luminescence,log2 fold change,1.1
CC[C@H](C)[C@H](NC(=O)[C@H](Cc1ccccc1)NC(=O)[C@H](CCC(=O)O)NC(=O)[C@H](CCCNC(=N)N)NC(=O)[C@H](C)NC(=O)[C@H](C)NC(=O)[C@H](CCC(N)=O)NC(=O)[C@H](CCC(=O)O)NC(=O)[C@H](CCC(=O)O)NC(=O)[C@H](CC(C)C)NC(=O)[C@H](Cc1ccc(O)cc1)NC(=O)[C@H](CO)NC(=O)[C@H](CO)NC(=O)[C@@H](NC(=O)[C@H](CC(=O)O)NC(=O)[C@H](CO)NC(=O)[C@@H](NC(=O)[C@H](Cc1ccccc1)NC(=O)[C@@H](NC(=O)CNC(=O)[C@H](CCC(=O)O)NC(=O)[C@H](C)NC(=O)CCc1c[nH]cn1)[C@@H](C)O)[C@@H](C)O)C(C)C)C(=O)N[C@@H](C)C(=O)N[C@@H](Cc1c[nH]c2ccccc12)C(=O)N[C@@H](CC(C)C)C(=O)N[C@H](C(=O)N[C@@H](CCCNC(=N)N)C(=O)NCC(=O)N[C@@H](CCCNC(=N)N)C(=O)N[C@@H](CCCCNC(=O)COCCOCCNC(=O)COCCOCCNC(=O)CC[C@H](NC(=O)CCCCCCCCCCCCCCCCC(=O)O)C(=O)O)C(=O)NCC(=O)NCC(=O)N[C@@H](CO)C(=O)N[C@@H](CCCCNc1c(NCCCCCN(O)C(=O)CCC(=O)NCCCCCN(O)C(=O)CCC(=O)NCCCCCN(O)C(C)=O)c(=O)c1=O)C(=O)O)C(C)C [zirconium-89 labelled],,gamma counting,"rat, skin at injection site","intravenous, 3 nmol/kg, 72 h",,tissue uptake,0.1 %ID/g
O=C(c1ccc(Cl)cc1)N1CCN2C(=O)N(OC(=O)N3CCOc4ccccc43)C(=O)C2C1 (stereo not drawn),"Probable serine carboxypeptidase CPVL (CPVL, Homo sapiens, UniProt Q9H3G5)",MS-based ABPP,SW-620 conditioned medium,"10 µM, 1 h, 37 °C","relative to: compound over DMSO, lower = more inhibition",median protein ratio,1.11
CCNC(=NC(=O)OC(C)(C)C)NC(=O)Nc1c(CC)cc(C(=O)OC)cc1CC,4'-phosphopantetheinyl transferase PptT,inhibitor,,,,IC50,> 100 µM
CNC(C)C(=O)c1ccc2c(c1)OCO2 (stereo not drawn),"Slc6a4 (Rattus norvegicus, UniProt P31652)",,,rat,,EC50,0.5 ± 0.09 µM
CN[C@@H](C)Cc1ccccc1,"SLC6A3 (Homo sapiens, UniProt Q01959)","peak current, two-electrode voltage clamp",Xenopus oocytes expressing hDAT,"1 min, -60 mV",,EC50,0.64 ± 0.15 µM
CCNc1c(Nc2c(CC)cccc2CC)c(=O)c1=O,4'-phosphopantetheinyl transferase PptT,inhibitor,,,,IC50,> 100 µM
COc1cc(C)[nH]c(=O)c1CNC(=O)c1c(C)n([C@H](C)C2CCN(CC(F)(F)F)CC2)c2ccccc12,"Histone-lysine N-methyltransferase EZH1, in PRC2 complex (EZH1, Homo sapiens, UniProt Q92800)",differential scanning fluorimetry,,"extrapolated from Tm, added: activator peptide",,Ki,0.031 µM
Cc1cccc([C@H](C)c2cnc[nH]2)c1C,"Cytochrome P450 2A6 (CYP2A6, Homo sapiens, UniProt P11509)",binding,,"20 min, pH 7.4, purified protein, 2% DMSO",,Kd,3.47 µM
COc1c(CCC[P+](c2ccccc2)(c2ccccc2)c2ccccc2)cc2c(c1OC)OCO2.[I-],NCI-H522,SRB,,,,TGI,-4.96 log M
